Assay results of several laboratories.
A part holds a random share of what one study measured. Changes are numbered by the printed parent chain.

Block 1
Target: Prothrombin, mature alpha-thrombin (F2, Homo sapiens, UniProt P00734)
Technique: aptamer microarray, sandwich
Form: DNA with 2'F-ANA
Sample: in vitro
Tested at: 200 nM
Setting: whole 15-mer aptamer, many near background
Added: Cy3 exosite-II aptamer, 400 nM
Direction: higher = stronger binding
Sequence: GGTTGGTGTGGTTGG
Modification	mean fluorescence intensity [a.u.]
2'F-ANA at 4 6 7 10 11 12 13 14 15	62.2
2'F-ANA at 1 4 5 6 7 12 13 14	45.9
2'F-ANA at 4 7 9 10 13 14	66.7
2'F-ANA at 2 3 4 7 9 11 12 13 15	521
2'F-ANA at 2 3 5 10 12 13	55
2'F-ANA at 3 4 7 8 9 10 11 14	198
2'F-ANA at 2 5 7 8 9 10 12 15	97.8
2'F-ANA at 3 4 5 8 9 13 14 15	50.8

Block 2
Target: ABI1, truncated, D143A, DHFR fusion (Arabidopsis thaliana, UniProt P49597)
Technique: DHFR PCA, dose-response
Sample: yeast
Setting: Hill fit, not affinity, not high confidence
Added: (+)-ABA, dose series
Direction: lower = more sensitive
Parent: PYL1, truncated, DHFR fusion (Arabidopsis thaliana, UniProt Q8VZS8); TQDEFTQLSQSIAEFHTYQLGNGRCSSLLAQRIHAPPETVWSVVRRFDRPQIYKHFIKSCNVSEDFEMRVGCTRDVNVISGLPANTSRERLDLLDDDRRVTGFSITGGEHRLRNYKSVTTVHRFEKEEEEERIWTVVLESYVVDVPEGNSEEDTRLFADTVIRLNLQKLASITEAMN
Variant	ABA EC50
Y115Q	0.0247 µM
V40N	0.686 µM
T120D	2230 µM
V142Y	28.8 µM
E174N	27.4 µM
R74K	25.8 µM
P146I	325 µM
H110I	19.2 µM

Block 3
Target: HLA class I histocompatibility antigen, A alpha chain, allele A*80:01 (Homo sapiens, UniProt P04439)
Observed: peptide-MHC binding
Form: peptide
Tested at: concentration not given
Molecule	binding
ILNRKAIDF	inactive
DEQEFFYSQ	inactive
MSAIVSCRY	inactive
HSNLNDTTY	inactive
SSHNHIPGY	inactive

Block 4
Target: UBE2D3 UBC core domain (UniProt P61077)
Technique: yeast two-hybrid
Sample: yeast
Setting: mostly zero background
Baseline: not given
Direction: higher = stronger interaction
B1: RC3H1 RING domain (UniProt Q5TC82); chain QAPQWTDFLSCPICTQTFDETIRKPISLGCGHTVCKMCLNKLHRKACPFDQTTINTDIELL
B2: TRIM13 RING domain (UniProt O60858); chain MELLEEDLTCPICCSLFDDPRVLPCSHNFCKKCLEGILEGSVRNSLWRPAPFKCPTCRKETSATGINS
B3: VPS41 RING domain (UniProt P49754); chain KGVLVDEENICESCLSPILPSDAAKPFSVVVFHCRHMFHKECLPMPSMNSAAQFCNICSAKNRGPGSAI
B4: TRIM43 RING domain (UniProt Q96BQ3); chain FSHAFQKELTCVICLNYLVDPVTICCGHSFCRPCLCLSWEEAQSPANCPACREPSPKMDFKT
B5: NEURL1 RING domain (UniProt O76050); chain VTPGLGQWSDECTICYEHAVDTVIYTCGHMCLCYACGLRLKKALHACCPICRRPIKDIIKT
Residues (chain): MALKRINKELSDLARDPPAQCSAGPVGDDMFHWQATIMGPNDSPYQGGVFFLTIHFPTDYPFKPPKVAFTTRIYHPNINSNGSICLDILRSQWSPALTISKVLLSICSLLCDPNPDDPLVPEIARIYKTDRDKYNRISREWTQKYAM
Molecule	lacZ reporter activity
B1 (RC3H1 RING domain)	0
B2 (TRIM13 RING domain)	0
B3 (VPS41 RING domain)	0
B4 (TRIM43 RING domain)	0
B5 (NEURL1 RING domain)	0
VEPSEENSKDCVVCQNGTVNWVLLPCRHTCLCDGCVKYFQQCPMCRQFVQESFALC (CGRRF1 RING domain (UniProt Q99675))	0
MPIRALCTICSDFFDHSRDVAAIHCGHTFHLQCLIQWFETAPSRTCPQCRIQVGKRTIIN (TRAIP RING domain (UniProt Q9BWF2))	0

A few entries again (block 2):
Variant	ABA EC50
E174N	27.4 µM
R74K	25.8 µM
